Assay results of several laboratories.
Compare with care: the assays were run in different laboratories. “And” joins repeats or separate records; there may be more than shown.

`C#Cc1c(F)ccc2cc(O)cc(-c3ncc4c(N5CC6CCC(C5)N6C(=O)OCOC(=O)CCC)nc(OC[C@@]56CCCN5C[C@H](F)C6)nc4c3F)c12` has a remaining prodrug of 95.1% (simulated gastric fluid; 1 µM, 30 min, 37 °C).
`Cc1cc(-c2ccc3ccccc3c2)nnc1NCCN1CCN(C)CC1` has a remaining compound of 65.4% (rat liver microsomes; 60 min).
Under “remaining intact peptide”, `CC[C@H](C)[C@H](NC(=O)[C@@H](NC(=O)[C@H](CCCCN)NC(=O)[C@@H](NC(=O)CNC(=O)[C@@H](N)CCCNC(=N)N)[C@@H](C)O)C(C)C)C(=O)N[C@@H](CC(C)C)C(=O)N[C@@H](Cc1c[nH]cn1)C(=O)N[C@@H](CC(C)C)C(N)=O` is recorded as 0% (LC-MS; pronase digest; 200 µM, 2 h, pH 7.5, 37 °C, together with: pronase 2.5 µg/mL).
`CSCC[C@H](NC(=O)[C@H](CCCNC(=N)N)NC(=O)[C@H](CCCNC(=N)N)NC(=O)[C@H](CCCCN)NC(=O)[C@H](C)NC(=O)[C@H](CCCNC(=N)N)NC(=O)CNC(=O)[C@@H](N)[C@@H](C)O)C(=O)N[C@@H](CCC(N)=O)C(=O)N[C@@H](Cc1ccc(O)cc1)C(=O)N[C@@H](CC(N)=O)C(=O)N[C@@H](CCCNC(=N)N)C(=O)N[C@@H](CCCNC(=N)N)C(N)=O` gave a remaining peptide of 5.4% and 4.09% and 6.6% (HPLC peak area; 50% human serum; 100 µM, 24 h, pH 7.4, 37 °C; relative to: 0 h).
For `C=CCN1CCC23c4c5ccc(OC(=O)c6ccccc6)c4OC2C(=O)CCC3(O)C1C5` (stereo not drawn), the remaining compound was 104% and 99.4% and 96.3% (human plasma; 0 h).
`C#Cc1c(F)ccc2cc(O)cc(-c3ncc4c(N5CC6CCC(C5)N6C(=O)OC(C)OC(=O)c5cccnc5)nc(OC[C@@]56CCCN5C[C@H](F)C6)nc4c3F)c12` (stereo partly drawn) gave a remaining prodrug of 97.3% (simulated gastric fluid; 1 µM, 30 min, 37 °C).
Under “remaining intact peptide”, `CC[C@H](C)[C@H](NC(=O)[C@@H](NC(=O)[C@H](CCCCN)NC(=O)[C@@H](NC(=O)[C@@H]1CCCN1[C@@H]1CN(C(=O)[C@@H](NC(=O)[C@@H](NC(=O)[C@@H](NC(=O)[C@@H](NC(=O)[C@@H](NC(=O)[C@@H](N)CCCCN)C(C)C)C(C)C)C(C)C)[C@@H](C)CC)[C@@H](C)O)CC[C@H]1NS(=O)(=O)c1ccc(C)cc1)[C@@H](C)O)C(C)C)C(=O)N[C@@H](CC(C)C)C(=O)N[C@@H](Cc1c[nH]cn1)C(N)=O` is recorded as 100% (LC-MS; pronase digest; 200 µM, 10 min, pH 7.5, 37 °C, together with: pronase 2.5 µg/mL).
The remaining peptide of `CC(C)[C@@H]1NC(=O)CNC(=O)[C@H](CC(N)=O)NC(=O)[C@H](CCCNC(=N)N)NC(=O)[C@H](Cc2ccc(O)cc2)NC(=O)[C@H](C(C)C)NC(=O)[C@@H](NC(=O)[C@@H](NC(=O)[C@H](CC(N)=O)NC(=O)[C@H](Cc2c[nH]c3ccccc23)NC(=O)[C@H](C)NC(=O)[C@H](Cc2ccccc2)NC(=O)CNC(=O)[C@H](CCCCN)NC(=O)[C@H](Cc2ccccc2)NC(=O)[C@H](Cc2ccccc2)NC(=O)[C@H](CCCCN)NC(=O)OCC2c3ccccc3-c3ccccc32)C(C)C)CSSC[C@@H](C(=O)N[C@@H](Cc2c[nH]cn2)C(=O)N[C@@H](CCCNC(=N)N)C(=O)N[C@@H](CCCNC(=N)N)C(=O)N[C@@H](C)C(=O)N[C@@H](CC(N)=O)C(N)=O)NC(=O)[C@H](C(C)C)NC(=O)[C@H](CCCNC(=N)N)NC1=O` is reported as 68.9% and 75% and 73.7% (HPLC; mouse mammary gland homogenate; 2560 µM, 6.00 h, 37 °C, 50 mg/mL tissue).
`C=CCN1CCC23c4c5ccc(OC(=O)c6ccc(N)cc6)c4OC2C(=O)CCC3(O)C1C5` (stereo not drawn) has a remaining compound of 56.7% and 58.2% and 54.7% (rat plasma; 1 h, together with: loperamide 100 µM).
The remaining prodrug of `C#Cc1c(F)ccc2cc(O)cc(-c3ncc4c(N5CC6CCC(C5)N6C(=O)OC(C)OC(=O)COCCOC)nc(OC[C@@]56CCCN5C[C@H](F)C6)nc4c3F)c12` (stereo partly drawn) is reported as 104% (simulated gastric fluid; 1 µM, 30 min, 37 °C).
For `C=CCN1CCC23c4c5ccc(OC(=O)c6ccc(NC(=O)OC(C)(C)C)cc6)c4OC2C(=O)CCC3(O)C1C5` (stereo not drawn), the remaining compound was 83.1% and 80.8% and 82.1% (human plasma; 4 h).
For `C[C@H](NC(=O)CNC(=O)[C@@H]1CCCN1C(=O)[C@H](CO)NC(=O)CNC(=O)[C@H](CO)NC(=O)[C@H](C)NC(=O)[C@H](CC(N)=O)NC(=O)[C@H](C)NC(=O)[C@H](CO)NC(=O)[C@H](C)NC(=O)[C@H](CO)NC(=O)[C@@H]1CCCN1C(=O)[C@H](Cc1ccccc1)NC(=O)[C@H](C)NC(=O)[C@H](CO)NC(=O)[C@@H]1CCCN1C(=O)[C@H](Cc1ccccc1)NC(=O)[C@@H](NC(=O)[C@H](CC(=O)O)NC(=O)[C@@H](N)CO)[C@@H](C)O)C(=O)N[C@@H](CCCNC(=N)N)C(=O)N[C@@H](CO)C(=O)O`, the remaining peptide was 1.03% (CHO-K1 culture medium; 80 min).
For `CC[C@H](C)[C@H](NC(=O)[C@H](Cc1ccccc1)NC(=O)[C@H](CCC(=O)O)NC(=O)[C@H](CCCCN)NC(=O)[C@H](C)NC(=O)[C@H](C)NC(=O)[C@H](CCC(N)=O)NC(=O)CNC(=O)[C@H](CCC(=O)O)NC(=O)[C@H](CC(C)C)NC(=O)[C@H](Cc1ccc(O)cc1)NC(=O)[C@H](CO)NC(=O)[C@H](CO)NC(=O)[C@@H](NC(=O)[C@H](CC(=O)O)NC(=O)[C@H](CO)NC(=O)[C@@H](NC(=O)[C@H](Cc1ccccc1)NC(=O)[C@@H](NC(=O)CNC(=O)[C@H](CCC(=O)O)NC(=O)C(C)(C)NC(=O)N(N)Cc1c[nH]cn1)[C@@H](C)O)[C@@H](C)O)C(C)C)C(=O)N[C@@H](C)C(=O)N[C@@H](Cc1c[nH]c2ccccc12)C(=O)N[C@@H](CC(C)C)C(=O)N[C@H](C(=O)N[C@@H](CCCNC(=N)N)C(=O)NCC(=O)N[C@@H](CCCNC(=N)N)C(=O)NCC(=O)O)C(C)C`, the remaining peptide was > 96% (HPLC-UV; Tris-HCl buffer; 0.1 mmol/l, 24 h, pH 7.4, 37 °C).
For `C=CCN1CCC23c4c5ccc(OC(=O)c6ccc(NCc7cn(CCCCCCCCCCCC)nn7)cc6)c4OC2C(=O)CCC3(O)C1C5` (stereo not drawn), the remaining compound was 94.4% (human plasma; 5 µM, 24 h, 37 °C).
`CC[C@H](C)[C@H](NC(=O)[C@@H](NC(=O)[C@@H](NC(=O)[C@@H](NC(=O)[C@@H](N)CCCCN)C(C)C)C(C)C)C(C)C)C(=O)N[C@H](C(N)=O)[C@@H](C)O`: “remaining intact peptide” 89% (LC-MS; pronase digest; 200 µM, 30 min, pH 7.5, 37 °C, together with: pronase 2.5 µg/mL).
For `C#Cc1c(F)ccc2cc(O)cc(-c3ncc4c(N5CC6CCC(C5)N6C(=O)OC(C)OC(=O)CC(C)(C)C)nc(OC[C@@]56CCCN5C[C@H](F)C6)nc4c3F)c12` (stereo partly drawn), the remaining prodrug was 77.9% (simulated gastric fluid; 1 µM, 30 min, 37 °C).
Under “remaining intact peptide”, `CCCCCCCCCCCC(=O)C(C)C(=O)N1CCC[C@H]1C(=O)NC(C)(C)C(=O)NC(C)(C)C(=O)NC(C)(C)C(=O)N[C@](C)(CC)C(=O)NCCC(=O)N[C@@H](C)C(=O)N[C@](C)(CC)C(=O)N[C@@H](C)C(=O)N[C@@H](CC(C)C)C(=O)N[C@](C)(CC)C(=O)NCCC(=O)N[C@@H](C)C(=O)N[C@](C)(CC)C(=O)NCCC(=O)N[C@@H](C)C(=O)NC(C)(C)C(=O)NC(C)(C)C(=O)NC(C)(C)C(=O)N[C@@H](C)C(=O)N[C@@H](CC(=O)O)C(=O)O` (stereo partly drawn) is recorded as 76.2% and 75.9% and 72.6% (LC-MS; buffer with human neutrophil elastase; 40 µM, 20 min, pH 7.5, 37 °C; relative to: 0 h).
With `C#Cc1c(F)ccc2cc(O)cc(-c3ncc4c(N5CC6CCC(C5)N6C(=O)OC(C)OC(=O)c5ccccc5)nc(OC[C@@]56CCCN5C[C@H](F)C6)nc4c3F)c12` (stereo partly drawn) the remaining prodrug was 99.6% (simulated gastric fluid; 1 µM, 30 min, 37 °C).
The remaining intact of `CSCC[C@@H]1NC(=O)[C@H](C(C)C)NC(=O)[C@H](CCCNC(=N)N)NC(=O)CNC(=O)[C@@H]2CCCN2C(=O)[C@@H](NC(=O)CNC(=O)[C@H](CO)NC(=O)CNC(=O)[C@H](CO)NC(=S)Nc2ccc(C[C@H]3CN(CC(=O)O)CCN(CC(=O)O)CCN3CC(=O)O)cc2)CSSC[C@@H](C(N)=O)NC(=O)[C@@H]2CCCN2C(=O)CNC(=O)[C@H](CCC(=O)O)NC(=O)[C@H](CC(=O)O)NC(=O)[C@H](CC(=O)O)NC(=O)CNC(=O)[C@H](CC(C)C)NC(=O)[C@H](Cc2c[nH]cn2)NC(=O)[C@H](CC(C)C)NC(=O)CNC(=O)[C@H](Cc2c[nH]cn2)NC1=O` [copper-64 labelled] is reported as > 90% (SE-HPLC; rat serum; 1.2 µM, 1 h, 37 °C).
The remaining prodrug of `C#Cc1c(F)ccc2cc(O)cc(-c3ncc4c(N5CC6CCC(C5)N6C(=O)OC(C)OC(=O)c5cccc6ccccc56)nc(OC[C@@]56CCCN5C[C@H](F)C6)nc4c3F)c12` (stereo partly drawn) is reported as 93% (simulated gastric fluid; 1 µM, 30 min, 37 °C).
`Cc1nnc(-c2ccc(CC(=O)NCCCC[C@H](NC(=O)c3ccc(OCc4ccc(B(O)O)cc4)c(-c4nc5ccccc5c(=O)[nH]4)c3)C(=O)NCC(=O)NCC(=O)NCC(=O)N[C@@H](Cc3ccccc3)C(=O)N[C@@H](Cc3ccccc3)C(=O)O)cc2)nn1` gave a remaining compound of 67.5% (UPLC-MS/MS; human serum; 100 µM, 2.5 h, 37 °C).

Excerpt of the above:
The remaining intact of `CSCC[C@@H]1NC(=O)[C@H](C(C)C)NC(=O)[C@H](CCCNC(=N)N)NC(=O)CNC(=O)[C@@H]2CCCN2C(=O)[C@@H](NC(=O)CNC(=O)[C@H](CO)NC(=O)CNC(=O)[C@H](CO)NC(=S)Nc2ccc(C[C@H]3CN(CC(=O)O)CCN(CC(=O)O)CCN3CC(=O)O)cc2)CSSC[C@@H](C(N)=O)NC(=O)[C@@H]2CCCN2C(=O)CNC(=O)[C@H](CCC(=O)O)NC(=O)[C@H](CC(=O)O)NC(=O)[C@H](CC(=O)O)NC(=O)CNC(=O)[C@H](CC(C)C)NC(=O)[C@H](Cc2c[nH]cn2)NC(=O)[C@H](CC(C)C)NC(=O)CNC(=O)[C@H](Cc2c[nH]cn2)NC1=O` [copper-64 labelled] is reported as > 90% (SE-HPLC; rat serum; 1.2 µM, 1 h, 37 °C).
